Published values of several laboratories.
Parts stem from different laboratories: compare values within a part only.

Series 1
Target: RNA binding protein fox-1 homolog 2, RRM domain, GST-SBP tag (RBFOX2, Homo sapiens, UniProt O43251-10, residues 100-194)
Technique: RNA Bind-n-Seq
Form: RNA
Medium: in vitro
Tested at: 365 nM
Setting: natural RNA segment, single round, ends assumed
Reference: no-protein control
Reading: higher = stronger binding
All sequences stand within: GGGAGUUCUACAGUCCGACGAUC … UGGAAUUCUCGGGUGCCAA
Construct (chain): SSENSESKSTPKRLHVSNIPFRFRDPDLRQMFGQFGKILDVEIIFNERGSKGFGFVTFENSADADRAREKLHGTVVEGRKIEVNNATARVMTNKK
`GCCAUAUCUCCUGUGGCACCUAGGCAGCCCAAUCUCAGGGUUAGUUUUUUCCAGGGAAAACAAUGUGCUUCCUCAUGUUCAUGCCAAAUUGCACAAAGUGUAGGUAUUCA`: “RBNS enrichment (R)” 0.262.
For `UCUAACUGAUCACAUACGCAGGAGUGGCCAUGGUCGAGAGGGCCUGACACACUUGGCCCUCGAUGUAUGAAAUCUUGACCAGAAUUAAAAGCAAAGACGUCUCUCCUGUC`, “RBNS enrichment (R)” read 0.538.
`ACACGUUACUCCAGCGCUACUCUUGCCAUUACGCCCCGUGUUUCCGAGCACAGCUGGUCCUACCCCAAGUCAUGGUGUGCUGAGUGACUGACUGAGGGGCCAUUGAGAGC`: “RBNS enrichment (R)” 0.72.
`ACCAGAGUUCAUUUAUCCUUGAAUAAACCUUUUUAUUUUCACCUCAGAAAAGUGAGUGUACUGGCAGUUAGUGUCACUGCUUUGCACAGUCCCCAUUAAAGGACCCUCCA`: “RBNS enrichment (R)” 0.337.
`UUCCCUGGGGGAGAAACCCUCUUGGCUAAUGGCUCUUCCCUGGCAUUAUCAAUAACCACCCGGGGACUCUCUGGCUUUCAGAUCCAUCUGCCUGAGACCCCAAGGUCCUC` — result for “RBNS enrichment (R)”: 0.33.
For `GGCACACUAAAAAAGAUCCUAGUUGAGCAUCUCUCUUGGUGAGGAAGCGAUGUGUGUGCGGUUCAGGAAACUCCUCCAAGAGGAGGAGGAGUCCAAACAGGGAUGCCAGA`, “RBNS enrichment (R)” read 0.427.
For `GGCCAAUAUAGGAUUAAUAUCUGUGUUCCAGCUUCAGCCAGAACGAUAUGUCUGUCCAUCUUUCUCCUUUCUUCCAGCACACACAGCUAAGAGAUAAGAAGGCUGCAAGG`, “RBNS enrichment (R)” read 0.336.
Under “RBNS enrichment (R)”, `AGCAGAAAAGAAGUGAGAACAUCUUGAUUCCCCUUUCUUUUACUUGAUGGUGUUUAUGAACAUGCCGUAGUGCCUUUAUGGCCAGUUUGAGUCCUGCCUACUUUGACUUU` is recorded as 0.33.

Series 2
Target: Histone acetyltransferase KAT6A, winged helix 1, GST fusion (KAT6A, Homo sapiens, UniProt Q92794, residues 1-85)
Technique: protein binding microarray
Form: double-stranded DNA, one strand shown
Medium: in vitro
Tested at: not given
Setting: 8-mer, flanks averaged, mean of 2 arrays, mostly near background
Reference: not given
Reading: higher = stronger binding
Residues (chain): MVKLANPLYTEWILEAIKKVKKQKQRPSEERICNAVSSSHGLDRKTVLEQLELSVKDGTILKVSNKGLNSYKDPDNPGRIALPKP
`TGTGCAAA` gave an E-score of -0.173.
With `CAGTATCA` the E-score was -0.107.
`AACCTTCC` has an E-score of 0.102.
`AAAGGCGG` gave an E-score of 0.232.
For `ACAGGTAA`, the E-score was -0.157.
`GGTCAAAA` gave an E-score of -0.191.
The E-score of `GCACCAGA` is reported as -0.142.
With `GAGTGACC` the E-score was -0.129.
The E-score of `GCGGCGAA` is reported as 0.394.
For `AAAAGCGA`, the E-score was 0.158.
With `CCTAGGGC` the E-score was -0.0285.
The E-score of `ATCTTTCA` is reported as -0.251.
The E-score of `AGCCGTAC` is reported as 0.366.
The E-score of `CTGCCTAA` is reported as -0.195.
The E-score of `CGTAGCCC` is reported as 0.152.
`ACCAAAGC` gave an E-score of 0.0287.
The E-score of `GAAAGACA` is reported as -0.0526.
The E-score of `CGTTCGGC` is reported as 0.206.
`CTAAGGTC` has an E-score of 0.0335.
`ACAGTTCC` has an E-score of 0.14.
With `CTTATAAC` the E-score was -0.181.
`GATAGACC` gave an E-score of 0.0594.
With `CGATCCCC` the E-score was 0.102.
`ATGCGTCG` gave an E-score of 0.275.
For `CTTGTTCA`, the E-score was -0.183.

Series 3
Target: Sal-like protein 4, full length isoform A (SALL4, Homo sapiens, UniProt Q9UJQ4, residues 1-1053)
Sequence of UniProt Q9UJQ4 (whole entry, looked up): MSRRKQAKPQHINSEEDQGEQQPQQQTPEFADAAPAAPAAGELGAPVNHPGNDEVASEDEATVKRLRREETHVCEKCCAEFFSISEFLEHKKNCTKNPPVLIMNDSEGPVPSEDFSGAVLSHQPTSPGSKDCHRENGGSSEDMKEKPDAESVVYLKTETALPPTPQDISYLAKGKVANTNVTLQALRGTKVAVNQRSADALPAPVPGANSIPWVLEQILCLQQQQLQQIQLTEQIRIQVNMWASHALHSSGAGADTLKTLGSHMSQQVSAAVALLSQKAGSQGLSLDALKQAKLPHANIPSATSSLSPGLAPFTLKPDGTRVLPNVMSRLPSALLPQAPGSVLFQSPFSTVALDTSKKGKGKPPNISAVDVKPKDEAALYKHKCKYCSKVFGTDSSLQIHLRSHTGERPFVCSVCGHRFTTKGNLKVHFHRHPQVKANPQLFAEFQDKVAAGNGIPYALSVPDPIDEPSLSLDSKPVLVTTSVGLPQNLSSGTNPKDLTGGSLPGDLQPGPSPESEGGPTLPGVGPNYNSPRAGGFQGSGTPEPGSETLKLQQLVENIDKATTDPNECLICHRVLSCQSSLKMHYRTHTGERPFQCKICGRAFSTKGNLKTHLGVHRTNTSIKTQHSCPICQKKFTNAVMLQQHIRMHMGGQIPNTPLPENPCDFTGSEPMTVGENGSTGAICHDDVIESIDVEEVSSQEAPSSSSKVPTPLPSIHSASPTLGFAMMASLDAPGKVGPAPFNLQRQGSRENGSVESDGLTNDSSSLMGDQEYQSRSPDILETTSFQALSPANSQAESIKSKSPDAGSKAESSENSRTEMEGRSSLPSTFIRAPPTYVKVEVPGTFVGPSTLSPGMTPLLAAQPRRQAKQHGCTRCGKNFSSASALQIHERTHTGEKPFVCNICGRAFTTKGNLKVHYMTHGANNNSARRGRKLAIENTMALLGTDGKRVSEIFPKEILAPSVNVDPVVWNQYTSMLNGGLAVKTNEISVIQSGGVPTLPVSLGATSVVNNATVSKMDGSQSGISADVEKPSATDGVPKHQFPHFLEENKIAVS
Technique: universal PBM
Form: double-stranded DNA, one strand shown
Medium: in vitro
Tested at: 600 nM
Setting: 8-mer, flanks averaged, mean of replicates
Reading: higher = stronger binding
For `CACACCTA`, the E-score was -0.00722.
For `ACCAGAGC`, the E-score was -0.137.
The E-score of `ATGATGTC` is reported as 0.089.
`AGCCGGTC` has an E-score of -0.292.
For `CCTTGAGC`, the E-score was -0.0869.
The E-score of `CAGCCATG` is reported as -0.103.
`AAACCCGT` gave an E-score of -0.163.
`CACAGTGG` gave an E-score of -0.0693.
For `CTCACAAA`, the E-score was 0.135.
The E-score of `ACCAGTGA` is reported as -0.0242.
`ACATACTC` has an E-score of 0.137.
With `CAGCTCGC` the E-score was -0.151.
`CGTCGACA` gave an E-score of -0.205.
For `ATGAGGCG`, the E-score was -0.0796.
The E-score of `GTTTAGCA` is reported as -0.0245.
For `AGCACATC`, the E-score was -0.0586.
The E-score of `GGTCAAAA` is reported as 0.104.
`AAAAGGAA` has an E-score of 0.173.
The E-score of `CTCGATGC` is reported as -0.128.
For `CAGCAATA`, the E-score was 0.215.
With `ATACCGAT` the E-score was 0.0877.
`ATCCGTTA` gave an E-score of 0.157.
`GGGGGACA` gave an E-score of -0.317.
With `CAATCATA` the E-score was 0.35.
The E-score of `AGACCTGC` is reported as -0.138.

Series 4
Target: Interferon regulatory factor 3, full length, phosphomimetic (IRF3, Homo sapiens, UniProt Q14653, residues 1-427, S386D/S396D/S398D/S402D/T404D/S405D)
Technique: protein-binding microarray
Form: double-stranded DNA, one strand shown
Medium: in vitro
Tested at: 2540 nM top
Setting: 60-bp whole probe
Together with: salmon DNA 0.4 mg/ml
Reference: random background probes
Reading: higher = stronger binding
All sequences stand within: GCCTAGCAC … GTCTTGATTCGCTTGACGCTGCTG
Target sequence (chain): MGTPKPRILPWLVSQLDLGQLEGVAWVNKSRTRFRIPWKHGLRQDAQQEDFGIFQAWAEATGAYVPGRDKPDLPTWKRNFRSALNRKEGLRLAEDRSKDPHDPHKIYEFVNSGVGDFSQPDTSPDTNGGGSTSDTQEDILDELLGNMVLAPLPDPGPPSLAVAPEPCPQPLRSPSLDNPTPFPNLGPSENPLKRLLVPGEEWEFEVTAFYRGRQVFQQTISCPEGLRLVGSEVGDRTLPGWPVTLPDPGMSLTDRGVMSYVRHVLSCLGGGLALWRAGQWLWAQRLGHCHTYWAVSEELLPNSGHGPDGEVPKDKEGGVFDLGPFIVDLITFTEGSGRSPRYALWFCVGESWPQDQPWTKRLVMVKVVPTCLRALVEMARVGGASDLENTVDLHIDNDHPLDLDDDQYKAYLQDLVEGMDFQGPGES
Under “fitted relative affinity”, `TTAGGTATCCTATTCCTTTAGTGCTAG` is recorded as 4.72 z-score.
`TTAGATCTTAGTTTCGATTAGTGCTAG` — result for “fitted relative affinity”: 3.84 z-score.
`GATGGACTGGACACTGGGGACGTGCTA` — result for “fitted relative affinity”: -0.962 z-score.
`GACGGTATCTGACTGGGGACGTGCTAG` — result for “fitted relative affinity”: 0.324 z-score.
Under “fitted relative affinity”, `GACGGACTGGAGACTGGGGACGTGCTA` is recorded as -0.753 z-score.
`TTGGGTCTCCTACTGCTTTAGTGCTAG`: “fitted relative affinity” -0.107 z-score.
Under “fitted relative affinity”, `GAGGGTTTCGACTTTCGGGACGTGCTA` is recorded as 2.56 z-score.
`TCATTTCTGTTTTTGCTACTGTGCTAG` — result for “fitted relative affinity”: 3.67 z-score.
For `TTAGCACTGGGGACTGGATTAGTGCTA`, “fitted relative affinity” read -1.05 z-score.
`GACGGGCTGGGGACTGGGGACGTGCTA`: “fitted relative affinity” -1.21 z-score.
`TTAGGCTTCGACTTTCGGTTAGTGCTA` — result for “fitted relative affinity”: 0.863 z-score.
For `TCATGTTTCTACTGTCTGACTGTGCTA`, “fitted relative affinity” read 0.492 z-score.
`TTAGGACTGGGGACCGGGTTAGTGCTA` — result for “fitted relative affinity”: -0.888 z-score.
`TTAGGTATTCTTTTCCTTTAGTGCTAG`: “fitted relative affinity” 2.46 z-score.
`AATACCTTCGAGTCTGCAACAGTGCTA` — result for “fitted relative affinity”: 0.147 z-score.
`GACGGTTTCCTAGTGCTGACGTGCTAG` — result for “fitted relative affinity”: 5.1 z-score.
Under “fitted relative affinity”, `GACGGACTGAGTTTCGAGACGTGCTAG` is recorded as 1.03 z-score.
For `GACCGTTTCGGGACTGGGGACGTGCTA`, “fitted relative affinity” read 4.47 z-score.
`TTAGGTATCGGTCTCGGTTCGTGCTAG`: “fitted relative affinity” 4.72 z-score.

Repeated from above (series 4):
For `GACCGTTTCGGGACTGGGGACGTGCTA`, “fitted relative affinity” read 4.47 z-score.
`TTAGGTATTCTTTTCCTTTAGTGCTAG`: “fitted relative affinity” 2.46 z-score.
`GACGGTTTCCTAGTGCTGACGTGCTAG` — result for “fitted relative affinity”: 5.1 z-score.
`TTAGGACTGGGGACCGGGTTAGTGCTA` — result for “fitted relative affinity”: -0.888 z-score.
For `TTAGCACTGGGGACTGGATTAGTGCTA`, “fitted relative affinity” read -1.05 z-score.
Under “fitted relative affinity”, `GACGGACTGGAGACTGGGGACGTGCTA` is recorded as -0.753 z-score.
For `TCATGTTTCTACTGTCTGACTGTGCTA`, “fitted relative affinity” read 0.492 z-score.
`TTAGGTATCGGTCTCGGTTCGTGCTAG`: “fitted relative affinity” 4.72 z-score.
Under “fitted relative affinity”, `TTAGGTATCCTATTCCTTTAGTGCTAG` is recorded as 4.72 z-score.
Under “fitted relative affinity”, `GACGGACTGAGTTTCGAGACGTGCTAG` is recorded as 1.03 z-score.
`GACGGTATCTGACTGGGGACGTGCTAG` — result for “fitted relative affinity”: 0.324 z-score.
